Measured values collected from several papers.
Parts stem from different laboratories: compare values within a part only. Changes are numbered by the printed parent chain.

Series 1 — technique: competition protein-binding microarray; form: double-stranded DNA, one strand shown; sample: in vitro; tested at: 2 µM; together with: Cbf1 competitor, 0.05 µM; direction: higher = stronger binding
Target: Phosphate system positive regulatory protein PHO4, full length, GST-tagged (PHO4, Saccharomyces cerevisiae, UniProt P07270, residues 1-312)
Notes: whole 60-bp probe, lowest competitor level
Target sequence (chain): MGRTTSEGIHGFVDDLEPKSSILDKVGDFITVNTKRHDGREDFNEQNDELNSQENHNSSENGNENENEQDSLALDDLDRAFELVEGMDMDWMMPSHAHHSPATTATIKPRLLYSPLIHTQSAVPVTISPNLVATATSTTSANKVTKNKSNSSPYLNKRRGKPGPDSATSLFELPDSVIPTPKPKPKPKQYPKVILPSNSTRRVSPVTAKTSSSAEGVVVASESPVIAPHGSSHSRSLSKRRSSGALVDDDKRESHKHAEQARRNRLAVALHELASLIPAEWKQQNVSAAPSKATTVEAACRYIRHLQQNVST
| Oligonucleotide | fluorescence intensity |
| --- | --- |
| GAAATGGAGCATTCACACGTGAAGATTTTTAGGGGAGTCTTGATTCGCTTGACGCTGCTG | 13100 a.u. |
| AAATTACTAAGTTTTCACGTGCGGTACCCCGTATGAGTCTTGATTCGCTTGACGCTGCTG | 14300 a.u. |
| ATCATTTTCAATGAAGCTGTGACGGTGGCATTCGCAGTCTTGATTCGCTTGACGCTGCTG | 4290 a.u. |
| ACAAGACGCTGCCATCACGCAAACTATGTTTTGACAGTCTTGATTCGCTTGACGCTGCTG | 4930 a.u. |
| GCCTAAGGGCCTGCCATCGTGCTTTCTCAAACTATTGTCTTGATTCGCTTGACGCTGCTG | 10200 a.u. |
| GAAAATTGCCGTTGTCATGCTGAGCATTTGTCGTACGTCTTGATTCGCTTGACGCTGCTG | 4490 a.u. |
| GTAAAAAATAGCATTTGCGTGCTTTAGTGAAATTTTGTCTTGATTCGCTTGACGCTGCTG | 6970 a.u. |
| CTAATAGCGTCGTTGGTCGTGACGGCGTTTACTGCAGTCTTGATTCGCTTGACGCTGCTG | 5410 a.u. |

Series 2 — technique: protein-binding microarray; form: double-stranded DNA, one strand shown; sample: in vitro; tested at: 2200 nM top; notes: 60-bp whole probe; together with: salmon DNA 0.4 mg/ml; baseline: random background probes; direction: higher = stronger binding; constant ends, left off below: GCCTAGCAC … GTCTTGATTCGCTTGACGCTGCTG
Target: Interferon regulatory factor 7, full length, phosphomimetic (IRF7, Homo sapiens, UniProt Q92985, residues 1-503, S471D/S472D/S475D/S476D/S477D/S483D/S484D/S487D)
Residues (chain): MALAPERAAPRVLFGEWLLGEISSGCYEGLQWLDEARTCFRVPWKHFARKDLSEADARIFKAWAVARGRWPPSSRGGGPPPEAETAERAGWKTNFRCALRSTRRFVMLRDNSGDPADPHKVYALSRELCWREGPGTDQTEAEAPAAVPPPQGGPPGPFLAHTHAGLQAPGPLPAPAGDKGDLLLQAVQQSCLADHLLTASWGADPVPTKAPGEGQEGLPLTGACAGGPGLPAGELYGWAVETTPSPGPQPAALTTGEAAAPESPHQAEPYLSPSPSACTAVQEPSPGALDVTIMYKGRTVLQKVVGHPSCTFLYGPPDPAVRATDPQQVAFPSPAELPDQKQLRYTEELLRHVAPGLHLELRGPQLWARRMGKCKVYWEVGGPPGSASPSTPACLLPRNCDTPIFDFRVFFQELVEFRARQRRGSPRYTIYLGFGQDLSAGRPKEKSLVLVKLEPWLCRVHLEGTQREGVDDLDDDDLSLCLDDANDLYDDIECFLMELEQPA
| Oligonucleotide | fitted relative affinity |
| --- | --- |
| TCATTTTACTTTCTGAAACTGTGCTAG | 3.72 z-score |
| TTATGACTGGGGACTGGGTTAGTGCTA | -0.364 z-score |
| TAGGTTTCACTTTCCAAAACGTGCTAG | 7.86 z-score |
| GGCGGTTCCGGTTTCGGGACGTGCTAG | 4.95 z-score |
| CCGTAGCTTCCTTTCGCCGCGTGCTAG | 1.3 z-score |
| CTTTAACTCATTTTCGTTTTGTGCTAG | 11.5 z-score |
| GACGATTTCAGTCTCCAGACGTGCTAG | 0.993 z-score |
| TCATCTCCCAGACTGGAACTGTGCTAG | 1.02 z-score |

Series 3 — technique: RNA Bind-n-Seq; form: RNA; sample: in vitro; tested at: not given; baseline: input RNA pool; direction: higher = stronger binding
Target: RING finger protein unkempt homolog, zinc fingers 1-6, GST-SBP tag (UNK, Homo sapiens, UniProt Q9C0B0, residues 30-357)
Chain of UniProt Q9C0B0 (30-357, looked up): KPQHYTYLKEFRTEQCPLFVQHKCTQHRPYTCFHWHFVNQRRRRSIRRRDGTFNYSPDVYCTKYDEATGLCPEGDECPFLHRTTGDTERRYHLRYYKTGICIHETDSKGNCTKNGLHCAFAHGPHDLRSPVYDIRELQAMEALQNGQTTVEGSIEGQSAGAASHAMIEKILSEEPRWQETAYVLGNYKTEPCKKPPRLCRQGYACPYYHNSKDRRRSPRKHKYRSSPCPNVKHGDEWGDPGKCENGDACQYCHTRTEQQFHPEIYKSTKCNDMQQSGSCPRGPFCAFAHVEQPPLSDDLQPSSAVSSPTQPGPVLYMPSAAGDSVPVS
Notes: RNA with constant flanks, human-mouse chimeric sites, ends assumed
| Oligonucleotide | bound/input enrichment [ratio] |
| --- | --- |
| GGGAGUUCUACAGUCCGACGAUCCUGAGGAAUACCACUGAGAGACCUUAAAAGAAUCAUUUGAGGGCUCUGUUCGUGCAAGAAUAGUCACUGAUCGGGAAACUGGUUCUUUCCAAAGGGUUGGUUUUGUAGACUUUAAUAGUGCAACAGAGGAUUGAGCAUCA | 0.754 |
| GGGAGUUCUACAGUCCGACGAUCGUACUGCAGCAGCAGGGAAAACUGCAGGAAGCUCUGAUGCAUUAUAAAGAAGCCAUACGAAUUAGUCCUACCUUUGCUGAUGCCUACUCUAAUAUGGGAAACACUCUAAAGGAGAUGCAGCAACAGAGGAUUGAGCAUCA | 0.52 |
| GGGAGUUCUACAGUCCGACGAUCAACAUUUUGUCAAAUUGUUAUGUUCCUGUGAAACAAGUGAACACUCUGAUACACUUCAUCUGCUUGUACAUCUGUAUUUGUAUAAUAUGUAAAUAUGUUAAUCCAAGCAAUGUGUCACUUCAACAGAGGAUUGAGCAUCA | 0.148 |
| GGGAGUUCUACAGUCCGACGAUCAAAGUGGACUAUGGCGAAUACAUGGAUAAAAACAAUGUGAGGCGACAAGCAACAACAAUCAUAGCUGAUAACAUUAUAUUUCUGAGUGACCAGACAAAAGAAAAGGCAUAGAACGGAUGACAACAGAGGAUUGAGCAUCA | 1.9 |
| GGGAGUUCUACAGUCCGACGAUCAAAGAAAAUGGAGAUGUAAAGAUUUUGCUGAAAAGUGGGAAGGAGAAACCAAAAACAAAUAUAGAAGACUUACAAAUUAAAAAGGUAAAGAAGAAAAAGAAAAAGAAACACAAAGAGAAUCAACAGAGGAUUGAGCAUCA | 13 |
| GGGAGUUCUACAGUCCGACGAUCGUAGCUGGGACUACAGAAAUGCUGGUAAUUUCAGUCAGUGAGUCGUGACUUCUGAUGUCCCAGCAAAUGUUGGCAUUCACUGCAAUAGAGAAGAUACUUCUGAGGACCCACGUCUAAGGUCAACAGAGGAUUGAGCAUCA | 0.114 |
| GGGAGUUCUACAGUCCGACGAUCCGCUUGGAUGAGGCGGGUGUCACAGAUGAAGUGCUAGAUUCUGCCAUGCAAGCCUUCCUUCUGGAGGUCAUUGUUAAGCAUGGGGAGCCGGCACCUUAUUUAUGUAACAAAGAUCCGUUUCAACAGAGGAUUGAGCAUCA | 0.101 |
| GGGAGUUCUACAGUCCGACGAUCGAUAAGAAAAGCUUGUUGGAGACCCGCUUGCAUGUCACUGGUAGAGACCUGAGGUGUCAAAUAGCUGAAACCUUUGGAUUUCAAGAAAAUUACAUCAAGAUCGUAAUAAAUAAGAAGCAGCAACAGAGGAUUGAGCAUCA | 0.414 |

Single results of other studies
Parent: PafA, mature enzyme, eGFP fusion (Elizabethkingia meningoseptica, UniProt Q9KJX5); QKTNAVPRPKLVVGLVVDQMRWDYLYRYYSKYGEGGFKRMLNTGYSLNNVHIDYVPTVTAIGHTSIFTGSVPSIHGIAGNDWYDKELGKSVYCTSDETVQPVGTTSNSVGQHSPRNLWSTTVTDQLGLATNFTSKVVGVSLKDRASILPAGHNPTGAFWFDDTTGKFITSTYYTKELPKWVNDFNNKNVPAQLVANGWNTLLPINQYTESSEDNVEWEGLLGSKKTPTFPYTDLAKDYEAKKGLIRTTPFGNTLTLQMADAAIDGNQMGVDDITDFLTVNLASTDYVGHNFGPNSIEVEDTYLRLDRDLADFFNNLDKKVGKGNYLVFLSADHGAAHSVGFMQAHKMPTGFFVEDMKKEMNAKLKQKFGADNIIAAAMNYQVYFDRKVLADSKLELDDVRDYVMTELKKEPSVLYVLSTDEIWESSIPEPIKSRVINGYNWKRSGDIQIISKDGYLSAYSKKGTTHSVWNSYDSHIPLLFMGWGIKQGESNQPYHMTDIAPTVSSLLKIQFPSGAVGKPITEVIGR
| Variant | target | assay | system | conditions | scale | measurement | value |
| --- | --- | --- | --- | --- | --- | --- | --- |
| S330V | tungstate, free oxyanion | microfluidic competitive inhibition | in vitro, cell-free expressed | not given, derived from inhibition constants, unchanged parent 2230 nM | lower = stronger binding | oxyanion analog dissociation constant | 3.15 µM |
